Results gathered from unrelated publications.
A part holds a random share of what one study measured.

Block 1 — method: RNA Bind-n-Seq; form: RNA; medium: in vitro; tested at: 365 nM; relative to: no-protein control; reading: higher = stronger binding; endpoint: RBNS enrichment (R)
Target: RNA binding protein fox-1 homolog 2, RRM domain, GST-SBP tag (RBFOX2, Homo sapiens, UniProt O43251-10, residues 100-194)
Notes: natural RNA segment, single round, ends assumed
Constant ends, left off below: GGGAGUUCUACAGUCCGACGAUC … UGGAAUUCUCGGGUGCCAA
Residues (chain): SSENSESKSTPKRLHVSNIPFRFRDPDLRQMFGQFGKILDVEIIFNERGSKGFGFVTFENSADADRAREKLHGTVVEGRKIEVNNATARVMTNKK
Strand = CAGAUAAUUGUCUGACUUUUUUUAGUCUUAAGUAUAGAGGGAAUCCCCUAAAGGCUGAUCCAACUGCUUCUGUGGUUCCACGGUAUUUUUCAUGGUUCAUGUGAAACGUG; value = 0.221
Strand = UAACCUGUUUUUAUUAGAUCAGCGAAGACAGUCAUGCAUCGCUUAAUGAUGGGGAUGCAUUCUGAGAAAUGUGUCAUUAGGCUGUUUUGUUGCUGUGCCAACAUCCUAGA; value = 0.585
Strand = UUCCAAAAAAUGUGUGUUGUUUGUUCCUCCUCAUCCUCUUCUGAGACUGUUGUUUUUUUAGAGCUUGAUUGUGGGAGAAAAGCUUGUGUGAAAUUCCCUCUUCACCUCCC; value = 1.49
Strand = CCGUGUGUUUAGAAGCCUAAUUGUCACAUCAAGCAUCAUUGUCCCCAUGCAACAACCACCACCUUAUACAUCACUUCCUGUUUUAAGCAGCUCUAAAACAUAGACUGAAG; value = 0.562
Strand = ACUUACACUGUUGACAUCUAUUUUCUGAAGUGUGUUUAAAUUAUUCAGUGCUAAUCAUUGUUUUUUCCUUUGUAAAUGUUGAUUCAGAAAAGGAAAGCACAGGCUAAGCA; value = 0.745
Strand = CAUGGGCACCUUGAUCAUGUCUUAACCUUCCCUUAACCUUGGGGCUCCCAAGCCAGAGUCAAGGUCUGACGCCACCUCAAGGUGACAGCUCAUCUCCAGCACAGCACAGG; value = 0.427
Strand = UAGAUAGCUUUGGUAAAUAUCUUUAAUAGAGGUGACUAUUGAACUGUUGAAUCUUGCAUUUGCACAGUACAAGGUGUAACUAGCAUCUUUAGUAUUUUUAUUGUUUUGCU; value = 1.09
Strand = AGCAACCUGAAGGGAUUCCUUCAGCUUACCUGGUAACCACAGCUAGUAACUAAAACACCCUUCUCUCGGAAUAAUAGACCCUGAAGUCUCUCUUUUUCAAGUUGUCCUUU; value = 0.259
Strand = GAGUGCAGAAGGGUGCGCCUCUUCCCUCUACCCCCGCACCACCUGCUGUGUGCCAGCCUGAGACGGUUCCUGCCUGUCUUGGGGGUUGGUGGAGGGUGGAGGCAGUUCUG; value = 0.499
Strand = CCGAGGCUGCAGCUCAGGGCAACGGCAGGCCAGGUCGUGGGUCUCCAGCCGUGCUUGGCCUCAGGGCUGGCAGCCGGAUCCUGGGGCAACCCAUCUGGUCUCUUGAAUAA; value = 1.3
Strand = UAUUCAGAGUCUGGGGCUGUGUGUUGAGCAGCCUUAAGGAUGCUAGACACUCAUUUAGUGCCCAGGGAGUCCAGCGAAUGACGUCUGUGGCCAAGCGAGGUCUCAGGUGC; value = 0.413
Strand = CUUUGCUGAAUUCUAACAUUAAAUCACAGCCCAAAAUUUGAUGGACUAAUUAUUAUUUUAAAAUAUAUGAAGACAAUAAUUCUACAUGUUGUCUUAAGAUGGAAAUACAG; value = 0.622

Block 2 — method: RNA Bind-n-Seq; form: RNA; medium: in vitro; tested at: 200 nM; notes: whole 134-nt RNA, ends assumed; with: 150 mM KCl; relative to: input library; reading: higher = stronger binding; endpoint: log2 enrichment
Target: Ras GTPase-activating protein-binding protein 1, full length (G3BP1, Homo sapiens, UniProt Q13283)
UniProt Q13283, sequence (whole entry, looked up): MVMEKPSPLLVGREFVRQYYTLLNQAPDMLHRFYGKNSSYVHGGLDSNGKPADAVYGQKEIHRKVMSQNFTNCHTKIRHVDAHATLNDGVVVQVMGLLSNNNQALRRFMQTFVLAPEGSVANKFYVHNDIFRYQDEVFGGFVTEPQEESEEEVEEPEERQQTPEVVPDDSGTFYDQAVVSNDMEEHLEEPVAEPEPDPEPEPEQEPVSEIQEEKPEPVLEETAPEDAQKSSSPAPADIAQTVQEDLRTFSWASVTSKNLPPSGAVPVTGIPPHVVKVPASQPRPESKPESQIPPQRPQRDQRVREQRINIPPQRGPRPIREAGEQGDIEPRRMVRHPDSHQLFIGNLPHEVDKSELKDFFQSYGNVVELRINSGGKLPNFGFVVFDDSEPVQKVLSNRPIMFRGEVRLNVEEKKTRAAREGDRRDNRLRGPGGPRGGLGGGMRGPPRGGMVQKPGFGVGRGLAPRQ
Constant ends, left off below: GGGAGUUCUACAGUCCGACGAUC … UGGAAUUCUCGGGUGUCAAGG
Strand = ACCAUGCAAAUGGGCAUCUUUGGGAAGUGGGGCAAGGGGGGGAUAGGGAGGGGGGUAACACUUUGGGAACAGGUGGUCCCAGGUCGUUUC; value = 0.761
Strand = AAGUCCUGUGCUACACAUCGUAUGUACCGAAUCGGGAAAAAGGGUUUGGGAAAGGGAAAGUAUUAUGUUACGCCGUUCGGAUCUGCACUU; value = -0.0187
Strand = CUGUGCUACACAUCGUAUGUACCGAAUCGGGUUUUUUUGGGAAAAAAAGGGUUUUUUUGGGAAAGUAUUAUGUUACGCCGUUCGGAUCUG; value = -1.41
Strand = UGGCCCUGGUGGCAUGCGGGGAGGAAUAGGUGGCCUCAUGGAUCGUGGUGGUCCCGGUGGAAUGUUCAGAGGUGGCCGUGGUGGAGACAG; value = 0.18
Strand = UGGCCCUGGUGGCAUGCGGGGAGGAAGAGGUGGCCUCAUGGAUCGUGGUGGUCCCGGUGGAAUGUUCAGAGGUGGCGGUGGUGGAGACAG; value = 0.561
Strand = UGGCCCAGGUGGCAUGCGGGGAGGAAGAGGUGGCCUCAUGGAUCGUGGUGGUCCCGGUGGAAUGUUCAGAGGUGGCCGUGGUGGAGACAG; value = 0.393
Strand = GUCCUGUGCUACACAUCGUAUGUACCGAAUCGGGUUUUUUUGGGAAAAAGGGAAAGGGAAAGUAUUAUGUUACGCCGUUCGGAUCUGCAC; value = -0.58
Strand = UCCUGUGCUACACAUCGUAUGUACCGAAUCAAACCCAAAUUUUUUUAAAUUUUUUUAAAAAAGUAUUAUGUUACGCCGUUCGGAUCUGCA; value = 0.164
Strand = CAAGUCCUGUGCUACACAUCGUAUGUACCGAAUCGGAAAGGUUUUUGGUUUUUGGAAAGUAUUAUGUUACGCCGUUCGGAUCUGCACUUC; value = -1.28

Block 3 — method: protein binding microarray; form: double-stranded DNA, one strand shown; medium: in vitro; tested at: not given; relative to: not given; reading: higher = stronger binding; endpoint: E-score
Target: Histone acetyltransferase KAT6A, winged helix 1, GST fusion (KAT6A, Homo sapiens, UniProt Q92794, residues 1-85)
Notes: 8-mer, flanks averaged, mean of 2 arrays, mostly near background
Residues (chain): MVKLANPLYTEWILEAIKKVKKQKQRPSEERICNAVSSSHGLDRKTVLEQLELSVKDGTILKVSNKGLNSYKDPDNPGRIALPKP
Strand = AGCGAGGG; value = -0.0422
Strand = GTACCCGA; value = 0.127
Strand = GTCTAGCA; value = -0.116
Strand = GGGAAAAC; value = 0.0598
Strand = CTGCCTTC; value = -0.0818
Strand = CACCGAAG; value = -0.0274
Strand = CTACGCTA; value = 0.298
Strand = ACGAGTGG; value = -0.147
Strand = GTCCGCAA; value = 0.203
Strand = TGAACCAA; value = -0.318
Strand = GGAAAAAA; value = 0.023
Strand = AAGGTAGC; value = -0.0525
Strand = GGACGGAA; value = 0.212
Strand = ATGTGCTG; value = -0.169
Strand = CGCTTGAC; value = 0.231
Strand = GAATGCAC; value = -0.0699
Strand = CGGTCCGC; value = 0.358
Strand = CTAGAGCC; value = 0.086
Strand = GCTTCCAA; value = 0.02
Strand = CTGCCCAC; value = -0.232

Block 4 — method: protein-binding microarray; form: double-stranded DNA, one strand shown; medium: in vitro; tested at: not given; reading: higher = stronger binding; endpoint: E-score
Target: Protein max, full length (MAX, Homo sapiens, UniProt P61244-2, residues 1-151)
Notes: k-mer, scored over probes, only values ≥0.25
Strand = ACGTGATA; value = 0.464
Strand = AACACGAG; value = 0.443
Strand = CAAGCATG; value = 0.421
Strand = CGTGCAGC; value = 0.391
Strand = CTCGTGTA; value = 0.435
Strand = ATCATGTG; value = 0.464
Strand = AAACGCGT; value = 0.259
Strand = CCACACGA; value = 0.295
Strand = ACCACACG; value = 0.346
Strand = CACCATGC; value = 0.415
Strand = GCCACGCC; value = 0.371
Strand = ATGAGGCA; value = 0.283
Strand = ACATCGTG; value = 0.365
Strand = ACATGGTG; value = 0.363
Strand = CACGTCAC; value = 0.258
Strand = GTGTCAGA; value = 0.287

Block 5 — method: protein-binding microarray; form: double-stranded DNA, one strand shown; medium: in vitro; tested at: 2200 nM top; notes: 60-bp whole probe; with: salmon DNA 0.4 mg/ml; relative to: random background probes; reading: higher = stronger binding; endpoint: fitted relative affinity; constant ends, left off below: GCCTAGCAC … GTCTTGATTCGCTTGACGCTGCTG
Target: Interferon regulatory factor 7, full length, phosphomimetic (IRF7, Homo sapiens, UniProt Q92985, residues 1-503, S471D/S472D/S475D/S476D/S477D/S483D/S484D/S487D)
Target sequence (chain): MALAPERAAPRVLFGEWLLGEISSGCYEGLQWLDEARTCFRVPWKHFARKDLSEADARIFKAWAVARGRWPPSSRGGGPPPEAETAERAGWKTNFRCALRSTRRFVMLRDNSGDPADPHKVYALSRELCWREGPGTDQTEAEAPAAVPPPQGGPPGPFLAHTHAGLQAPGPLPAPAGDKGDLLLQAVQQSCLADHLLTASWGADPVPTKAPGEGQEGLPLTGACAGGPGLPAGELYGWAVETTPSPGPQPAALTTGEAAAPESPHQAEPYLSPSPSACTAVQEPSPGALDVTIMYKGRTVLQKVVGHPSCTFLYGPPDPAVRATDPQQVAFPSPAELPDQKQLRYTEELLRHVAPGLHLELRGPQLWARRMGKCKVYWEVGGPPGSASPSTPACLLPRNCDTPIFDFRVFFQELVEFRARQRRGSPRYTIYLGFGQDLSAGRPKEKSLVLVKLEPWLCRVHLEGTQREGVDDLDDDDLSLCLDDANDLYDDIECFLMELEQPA
Strand = CACGATATCAGTCTCGAGACGTGCTAG; value = 0.77 z-score
Strand = TTAGATATCGGTTTCGGTTAGTGCTAG; value = 7.26 z-score
Strand = TTAGAACTGAGACTGGAATAGTGCTAG; value = -0.849 z-score
Strand = TTAGATATCAGACTGGAGTAGTGCTAG; value = -0.332 z-score
Strand = GACGGTCTCGGTATCTGGACGTGCTAG; value = 0.518 z-score
Strand = GACGATATCAGACTGAAGACGTGCTAG; value = -0.145 z-score
Strand = GACGATTCCAGCTTCGAGACGTGCTAG; value = 0.538 z-score
Strand = TCACATACTAGTTTCCAACTGTGCTAG; value = 2.19 z-score
Strand = TTAGTTTTCGGGTATCGATTAGTGCTA; value = 6.36 z-score
Strand = GTGGCTCACACCTGTCATCCCGTGCTA; value = 0.377 z-score
Strand = GACGGTTTCCATTCCCTGACGTGCTAG; value = 5.18 z-score
Strand = TCACCATTATATTTTAAACTGTGCTAG; value = 0.914 z-score
Strand = TTAGAACTGGGGTTTCGATGAGTGCTA; value = 0.333 z-score
Strand = CTGTTTTTCTCACCACATTTTGTGCTA; value = 2.68 z-score
Strand = GAAGGACTGCTTATCCTGACGTGCTAG; value = 0.163 z-score
Strand = TTACATATCAGACTGGATTAGTGCTAG; value = 0.576 z-score
Strand = TCATCTTTAACATATTCTACTGTGCTA; value = 0.96 z-score
Strand = TCTGTTTCCTCTTTCTTTGCGTGCTAG; value = 5.26 z-score
Strand = TTAGATTCCAGTTTCGATCAGTGCTAG; value = 4.38 z-score
Strand = GAAGATTCCAGTTTCGAGACGTGCTAG; value = 4.65 z-score
Strand = TTAGCTTTCGGGTATCGGTTAGTGCTA; value = 6.61 z-score
Strand = CACGGTATCGGGTATCGGGACGTGCTA; value = -0.0103 z-score
Strand = GTGTTACTAAAATTTCATGAAGTGCTA; value = 0.33 z-score
Strand = GAAAGGTACCATGGTGGCTCGTGCTAG; value = 0.288 z-score
Strand = ATATTTCCCAGAACTGGAGTGGTGCTA; value = 0.722 z-score

For quick reference, copied from above (block 3):
Strand = GGGAAAAC; value = 0.0598
Strand = CTGCCTTC; value = -0.0818
Strand = CACCGAAG; value = -0.0274
Strand = CTACGCTA; value = 0.298
Strand = ACGAGTGG; value = -0.147
Strand = GTCCGCAA; value = 0.203
Strand = TGAACCAA; value = -0.318
Strand = GGAAAAAA; value = 0.023
